Results gathered from unrelated publications.
IGF1R: Insulin-like growth factor 1 receptor (IGF1R, Homo sapiens, UniProt P08069)
Chain of UniProt P08069 (whole entry, looked up): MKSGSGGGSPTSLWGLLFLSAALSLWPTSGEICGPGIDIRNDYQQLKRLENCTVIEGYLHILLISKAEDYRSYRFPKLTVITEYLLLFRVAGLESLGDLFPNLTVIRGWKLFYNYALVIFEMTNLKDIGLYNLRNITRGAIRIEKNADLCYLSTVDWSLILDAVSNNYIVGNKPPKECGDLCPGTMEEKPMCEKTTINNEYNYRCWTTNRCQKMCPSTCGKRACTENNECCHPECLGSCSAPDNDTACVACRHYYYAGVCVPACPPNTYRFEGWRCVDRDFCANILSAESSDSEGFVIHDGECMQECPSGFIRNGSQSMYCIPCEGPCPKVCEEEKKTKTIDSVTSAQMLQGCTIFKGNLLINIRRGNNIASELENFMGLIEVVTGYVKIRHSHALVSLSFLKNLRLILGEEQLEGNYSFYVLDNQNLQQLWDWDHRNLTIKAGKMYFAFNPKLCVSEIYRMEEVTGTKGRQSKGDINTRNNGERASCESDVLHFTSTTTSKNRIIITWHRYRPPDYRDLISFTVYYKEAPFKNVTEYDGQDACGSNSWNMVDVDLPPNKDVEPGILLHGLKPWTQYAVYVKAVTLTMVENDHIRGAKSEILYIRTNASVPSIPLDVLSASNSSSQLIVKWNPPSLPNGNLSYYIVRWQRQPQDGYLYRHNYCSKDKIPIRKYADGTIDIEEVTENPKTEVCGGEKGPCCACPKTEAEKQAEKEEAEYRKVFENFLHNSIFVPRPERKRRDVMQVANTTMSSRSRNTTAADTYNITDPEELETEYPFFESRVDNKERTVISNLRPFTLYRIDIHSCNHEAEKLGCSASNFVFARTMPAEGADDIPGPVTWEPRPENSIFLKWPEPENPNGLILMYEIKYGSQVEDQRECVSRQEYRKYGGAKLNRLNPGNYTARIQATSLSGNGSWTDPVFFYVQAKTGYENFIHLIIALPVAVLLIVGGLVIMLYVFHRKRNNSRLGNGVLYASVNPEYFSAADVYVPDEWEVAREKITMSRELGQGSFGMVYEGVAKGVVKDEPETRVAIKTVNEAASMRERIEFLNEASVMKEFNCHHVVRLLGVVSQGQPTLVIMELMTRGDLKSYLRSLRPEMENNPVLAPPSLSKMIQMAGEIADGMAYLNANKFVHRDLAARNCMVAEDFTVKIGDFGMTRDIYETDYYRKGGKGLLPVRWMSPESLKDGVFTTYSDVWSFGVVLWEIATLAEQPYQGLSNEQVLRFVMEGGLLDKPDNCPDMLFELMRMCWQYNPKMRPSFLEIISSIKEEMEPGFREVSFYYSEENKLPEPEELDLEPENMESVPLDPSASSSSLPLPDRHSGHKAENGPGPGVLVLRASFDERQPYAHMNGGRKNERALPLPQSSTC

target | assay | conditions | scale | quantity | result | Compound
IGF1R | enzyme activity | 10 µM | relative to: control | remaining activity | 0% | COc1cc(N2CCN(C)CC2)ccc1Nc1nc(N)n(C(=S)NCc2c(Cl)cccc2Cl)n1
IGF1R | enzyme activity | 10 µM |  | remaining activity | 75% | O=C1NC(=O)/C(=C/c2ccc(-c3ccc(F)cc3O)o2)S1
IGF1R | enzyme activity | 10 µM | relative to: control | remaining activity | 1.1% | CCOc1cc(N2CCN(C)CC2)ccc1Nc1nc(N)n(C(=O)NCc2ccccc2S(=O)(=O)C(C)C)n1
Insulin-like growth factor 1 receptor, activated (IGF1R, Homo sapiens, UniProt P08069) | kinase activity | 1 µM, with: ATP 10 µM | relative to: DMSO control | remaining activity | 111% | COc1cc(-c2cncc3c2CN(C)Cc2cc(N4CCNCC4)ccc2-3)cc(OC)c1OC
IGF1R | inhibitor, radiometric phosphocellulose | 10 µM, with: ATP 0.2 mM |  | inhibition | ~98% | C[C@]1(O)C[C@@H](c2nc(-c3ccc4ccc(-c5ccccc5)nc4c3)c3c(N)nccn32)C1
IGF1R | kinase activity | 10 µM, with: 10 µM ATP |  | remaining activity | 95% | COc1cc(F)ccc1-c1ncnc(Nc2cccc(C[S@](C)(=N)=O)c2)n1
IGF1R | kinase activity, inhibitor, SelectScreen kinase profiling | 1 µM | relative to: control | remaining activity | 74% | c1cnc2ccc(Nc3nc(NC4CC4)c4nc[nH]c4n3)cc2c1
IGF1R | enzyme activity | 10 µM | relative to: control | remaining activity | 3.8% | COc1cc(N2CCN(C)CC2)ccc1Nc1nc(N)n(C(=O)NCc2c(Cl)cccc2Cl)n1
IGF1R | kinase activity, KinaseProfiler | 0.03 µM, species human | relative to: control | remaining activity | 73% | Cc1cc(Nc2cc(N3CCN(C)CC3)nc(Sc3ccc(NC(=O)C4CC4)cc3)n2)[nH]n1

For quick reference, copied from above:
target | assay | conditions | scale | quantity | result | Compound
IGF1R | enzyme activity | 10 µM | relative to: control | remaining activity | 3.8% | COc1cc(N2CCN(C)CC2)ccc1Nc1nc(N)n(C(=O)NCc2c(Cl)cccc2Cl)n1
